Published values pooled from the literature.
Compare with care: the assays were run in different laboratories. ± marks the error that the study gave.
Target: ATP-dependent translocase ABCB1 (ABCB1, Homo sapiens, UniProt P08183)
Sequence of UniProt P08183 (whole entry, looked up): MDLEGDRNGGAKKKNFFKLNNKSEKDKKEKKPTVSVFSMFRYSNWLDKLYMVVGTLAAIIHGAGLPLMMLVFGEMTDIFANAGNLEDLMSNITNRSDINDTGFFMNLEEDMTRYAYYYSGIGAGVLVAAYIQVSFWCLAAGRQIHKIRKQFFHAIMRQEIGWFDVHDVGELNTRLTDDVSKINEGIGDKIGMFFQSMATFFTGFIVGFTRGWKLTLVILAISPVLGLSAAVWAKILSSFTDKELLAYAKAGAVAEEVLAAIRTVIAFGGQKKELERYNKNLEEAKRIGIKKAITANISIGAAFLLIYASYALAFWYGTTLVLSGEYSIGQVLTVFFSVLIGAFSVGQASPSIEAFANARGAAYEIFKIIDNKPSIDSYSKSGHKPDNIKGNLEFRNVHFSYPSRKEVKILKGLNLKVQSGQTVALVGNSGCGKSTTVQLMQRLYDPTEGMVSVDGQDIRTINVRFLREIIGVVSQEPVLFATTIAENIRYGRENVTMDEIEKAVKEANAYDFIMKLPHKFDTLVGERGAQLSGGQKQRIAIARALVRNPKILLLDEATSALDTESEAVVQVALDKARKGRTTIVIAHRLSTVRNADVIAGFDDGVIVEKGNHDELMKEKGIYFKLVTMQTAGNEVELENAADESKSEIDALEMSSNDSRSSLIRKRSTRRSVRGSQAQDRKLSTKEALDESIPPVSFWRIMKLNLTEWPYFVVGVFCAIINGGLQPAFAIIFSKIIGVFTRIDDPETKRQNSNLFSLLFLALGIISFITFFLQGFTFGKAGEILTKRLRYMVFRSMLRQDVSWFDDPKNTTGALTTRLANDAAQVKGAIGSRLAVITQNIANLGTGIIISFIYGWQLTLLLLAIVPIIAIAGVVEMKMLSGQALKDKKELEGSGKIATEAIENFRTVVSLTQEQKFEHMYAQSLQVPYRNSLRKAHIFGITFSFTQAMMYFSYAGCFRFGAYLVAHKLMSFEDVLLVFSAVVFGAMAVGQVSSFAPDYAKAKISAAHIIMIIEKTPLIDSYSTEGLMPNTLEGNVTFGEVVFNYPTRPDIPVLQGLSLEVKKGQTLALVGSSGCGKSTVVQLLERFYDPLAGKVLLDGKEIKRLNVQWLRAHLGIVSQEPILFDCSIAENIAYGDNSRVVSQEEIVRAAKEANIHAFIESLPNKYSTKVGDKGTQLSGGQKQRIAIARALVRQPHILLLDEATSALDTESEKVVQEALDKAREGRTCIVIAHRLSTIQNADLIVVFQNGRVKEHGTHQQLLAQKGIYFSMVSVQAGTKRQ

Structure (SMILES) = CC(=O)c1cc(C(=O)N[C@@H](C)Cn2ccc(-c3ccc(C#N)c(Cl)c3)n2)[nH]n1; assay = inhibitor; test system = MDCK; setting = together with: digoxin substrate; quantity = IC50; result = 2.6 µM
Structure (SMILES) = CC(C)[C@H](NC(=O)OC(C)(C)C)c1nc(C(=O)O)cs1; assay = calcein-AM efflux, flow cytometry; test system = HeLa transduced with BacMam ABCB1; setting = 20 µM, 10 min, 5% FBS, together with: calcein-AM 0.5 µM; scale = reference: 1 µM tariquidar; quantity = inhibition; result = < 5%
Structure (SMILES) = CC(=O)N1CCN(c2cc(-c3ccccc3)nc3cc(-c4cccc(Cl)c4)nn23)CC1; assay = JC-1 efflux, inhibitor; test system = Jurkat-DNR; quantity = IC50; result = 5.67 ± 2.21 µM
Structure (SMILES) = CC(C)[C@H](NC(=O)OC(C)(C)C)c1nc(C(=O)N[C@H](c2nc(C(=O)N[C@H](c3nc(C(=O)O)cs3)C(C)C)cs2)C(C)C)cs1; assay = Bodipy-FL-prazosin efflux, flow cytometry; test system = HeLa transduced with BacMam ABCB1; setting = 10 µM, 45 min, 5% FBS; scale = reference: 1 µM tariquidar; quantity = inhibition; result = < 10%
Structure (SMILES) = Cc1ccc(Nc2nccc(N(C)c3ccc4c(C)n(C)nc4c3)n2)cc1S(N)(=O)=O; assay = bidirectional transport; test system = MDCK-MDR1; setting = 5 µM, 240 min, together with: canertinib 5 µM; quantity = Papp B-A; result = 4.02 ± 0.08 ×10⁻⁶ cm/s
Structure (SMILES) = CC(CN(C)C)CN1c2ccccc2CCc2ccccc21 (centres unmarked); assay = transport; test system = MDCK-MDR1; setting = 10 µM, 90 min; scale = reference: B-A over A-B; quantity = efflux ratio; result = < 2
Structure (SMILES) = CCOC(=O)c1csc([C@@H](NC(=O)c2csc([C@@H](NC(=O)c3csc([C@@H](NC(=O)OC(C)(C)C)C(C)C)n3)C(C)C)n2)C(C)C)n1; assay = Bodipy-FL-prazosin efflux, flow cytometry; test system = HeLa transduced with BacMam ABCB1; setting = 10 µM, 45 min, 5% FBS; scale = reference: 1 µM tariquidar; quantity = inhibition; result = 75%
Structure (SMILES) = COc1ccc(-c2cc3nc(-c4ccco4)cc(N4CCN(C(=O)c5ccoc5)CC4)n3n2)cc1; assay = JC-1 efflux, inhibitor; test system = Jurkat-DNR; quantity = IC50; result = 3.45 µM
Structure (SMILES) = CCOC(=O)c1csc([C@@H](NC(=O)c2csc([C@@H](NC(=O)c3csc([C@@H](NC(=O)c4csc([C@@H](NC(=O)OC(C)(C)C)C(C)C)n4)C(C)C)n3)C(C)C)n2)C(C)C)n1; assay = calcein-AM efflux, flow cytometry; test system = HeLa transduced with BacMam ABCB1; setting = 10 µM, 10 min, 5% FBS, together with: calcein-AM 0.5 µM; scale = reference: 1 µM tariquidar; quantity = inhibition; result = 59%
Structure (SMILES) = CN1CCN(c2ccc(C(=O)Nc3n[nH]c4ccc(Cc5cc(F)cc(F)c5)cc34)c(NC3CCOCC3)c2)CC1; test system = LLC-PK1 cells expressing human ABCB1; setting = 3.5 h, together with: zosuquidar 1 µM; scale = apical to basolateral; quantity = Papp; result = 1.52 ± 0.19 ×10⁻⁶ cm/s
Structure (SMILES) = COc1cc2c(cc1OC)CN(CCc1ccc(NC(=O)c3cc(OC)c(OC)cc3NC(=O)c3cnc4ccccc4c3)cc1)CC2; assay = rhodamine-123 efflux; test system = human peripheral CD56+ lymphocytes; setting = 490 ng/mL, ex vivo, mean plasma concentration, together with: rhodamine-123 0.2 µg/mL; quantity = inhibition; result = 100%
Structure (SMILES) = C#Cc1cc(N2CCN(C(=O)c3ccoc3)CC2)n2nc(-c3cccc(Cl)c3)cc2n1; assay = JC-1 efflux, inhibitor; test system = Jurkat-DNR; quantity = IC50; result = 10.2 ± 3.99 µM
Structure (SMILES) = C[C@H]1O[C@@H](O[C@H]2[C@@H](O)C[C@H](O[C@H]3[C@@H](O)C[C@H](O[C@H]4CC[C@@]5(C)[C@H](CC[C@@H]6[C@@H]5C[C@@H](O)[C@]5(C)[C@@H](C7=CC(=O)OC7)CC[C@]65O)C4)O[C@@H]3C)O[C@@H]2C)C[C@H](O)[C@@H]1O; test system = LLC-PK1 cells expressing human ABCB1; setting = 3.5 h, together with: zosuquidar 1 µM; scale = apical to basolateral; quantity = Papp; result = 4.2 ± 0.23 ×10⁻⁶ cm/s
Structure (SMILES) = COc1ccccc1-c1cc2nc(-c3ccccc3)cc(N3CCN(C(=O)c4ccoc4)CC3)n2n1; assay = JC-1 efflux, inhibitor; test system = Jurkat-DNR; quantity = IC50; result = 2.17 ± 0.76 µM
Structure (SMILES) = CC[C@]1(O)C[C@@H]2CN(CCc3c([nH]c4ccccc34)[C@@](C(=O)OC)(c3cc4c(cc3OC)N(C)[C@H]3[C@@](O)(C(=O)OC)[C@H](OC(C)=O)[C@]5(CC)C=CCN6CC[C@]43[C@@H]65)C2)C1; assay = ATPase activity, substrate; test system = membranes; setting = together with: ATP 1 mM; quantity = Vmax; result = 17.5 ± 0.5 nmol Pi/min/mg protein
Structure (SMILES) = COc1ccccc1-c1cc2nc(-c3ccccc3)cc(N3CCN(C(=O)c4ccccc4)CC3)n2n1; assay = JC-1 efflux, inhibitor; test system = Jurkat-DNR; quantity = IC50; result = 2.31 ± 0.79 µM
Structure (SMILES) = COc1cc2c(cc1OC)CN(CCc1ccc(NC(=O)c3cc(OC)c(OC)cc3NC(=O)c3cnc4ccccc4c3)cc1)CC2; assay = inhibitor; test system = patient CD56+ mononuclear cells, human patients; setting = intravenous, 150 mg, 48 h; scale = reference: pre-dose; quantity = rhodamine efflux; result = decreased
Structure (SMILES) = CCOC(=O)c1csc([C@@H](N)C(C)C)n1; assay = Bodipy-FL-prazosin efflux, flow cytometry; test system = HeLa transduced with BacMam ABCB1; setting = 20 µM, 45 min, 5% FBS; scale = reference: 1 µM tariquidar; quantity = inhibition; result = < 5%
Structure (SMILES) = O=C(c1ccoc1)N1CCN(c2cc(-c3ccccc3)nc3cc(-c4cccc(Cl)c4)nn23)CC1; assay = JC-1 efflux, inhibitor; test system = Jurkat-DNR; quantity = IC50; result = 8.58 ± 0.63 µM
Structure (SMILES) = CC(C)[C@H](NC(=O)OC(C)(C)C)c1nc(C(=O)N[C@H](c2nc(C(=O)O)cs2)C(C)C)cs1; assay = Bodipy-FL-prazosin efflux, flow cytometry; test system = HeLa transduced with BacMam ABCB1; setting = 20 µM, 45 min, 5% FBS; scale = reference: 1 µM tariquidar; quantity = inhibition; result = 12%
Structure (SMILES) = CC(C)NCC(O)COc1cccc2ccccc12 (centres unmarked); assay = transport; test system = MDCK-MDR1; setting = 10 µM, 90 min; scale = reference: B-A over A-B; quantity = efflux ratio; result = < 2
Structure (SMILES) = CC(C)[C@H](N)c1nc(C(=O)O)cs1; assay = calcein-AM efflux, flow cytometry; test system = HeLa transduced with BacMam ABCB1; setting = 20 µM, 10 min, 5% FBS, together with: calcein-AM 0.5 µM; scale = reference: 1 µM tariquidar; quantity = inhibition; result = < 5%
Structure (SMILES) = COc1cccc(-c2cc3nc(-c4ccco4)cc(N4CCN(C(C)=O)CC4)n3n2)c1; assay = JC-1 efflux, inhibitor; test system = Jurkat-DNR; quantity = IC50; result = 1.64 µM
